Measurements gathered from unrelated publications.
A part holds a random share of what one study measured. Substitutions count along the parent as printed.

Series 1 — method: protein-binding microarray; form: double-stranded DNA, one strand shown; sample: in vitro; tested at: 250 nM; notes: 60-bp whole probe; with: salmon DNA 0.4 mg/ml; reference: random background probes; direction: higher = stronger binding; all sequences stand within: GCCTAGCAC … GTCTTGATTCGCTTGACGCTGCTG
Target: Interferon regulatory factor 7, full length, phosphomimetic (IRF7, Homo sapiens, UniProt Q92985, residues 1-503, S101K/S471D/S472D/S475D/S476D/S477D/S483D/S484D/S487D)
Construct (chain): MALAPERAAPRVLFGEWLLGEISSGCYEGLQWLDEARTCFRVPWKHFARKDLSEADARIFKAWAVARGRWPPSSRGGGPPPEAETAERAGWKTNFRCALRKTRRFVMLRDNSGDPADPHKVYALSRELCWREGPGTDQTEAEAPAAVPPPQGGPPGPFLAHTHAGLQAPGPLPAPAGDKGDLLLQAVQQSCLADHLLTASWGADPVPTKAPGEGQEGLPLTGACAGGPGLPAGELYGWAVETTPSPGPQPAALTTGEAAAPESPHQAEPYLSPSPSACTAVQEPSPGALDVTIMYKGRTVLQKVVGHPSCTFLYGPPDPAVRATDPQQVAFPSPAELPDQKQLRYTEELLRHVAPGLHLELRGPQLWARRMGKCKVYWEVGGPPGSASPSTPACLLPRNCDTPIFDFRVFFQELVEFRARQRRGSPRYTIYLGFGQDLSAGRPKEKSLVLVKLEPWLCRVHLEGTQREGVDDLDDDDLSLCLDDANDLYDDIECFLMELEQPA
The log fluorescence of `TTAGGTATCCTTTTCCATTAGTGCTAG` is reported as 1.74 z-score.
`GGGCATTTAGAAAATGGAAATGTGCTA` gave a log fluorescence of -0.417 z-score.
`TTAGGTTTCGGTATGGGTTAGTGCTAG` gave a log fluorescence of 10.2 z-score.
With `TTAGATTTCAGGCTCGATTAGTGCTAG` the log fluorescence was 1.45 z-score.
With `TTAGGTTTCGGTCTCGGTTCGTGCTAG` the log fluorescence was 9.65 z-score.
`ATATATATGAATATATATTAGTGCTAG` has a log fluorescence of 0.186 z-score.
`TTAGGTACCCTTTTCCTTTAGTGCTAG` has a log fluorescence of 2.9 z-score.
`GACGGACTCCTACTGCTGACGTGCTAG` has a log fluorescence of -0.168 z-score.
With `TCATTTCTGAATGTCCTACTGTGCTAG` the log fluorescence was 1.5 z-score.
For `AGAGATGTGGGACTCACCTAGTGCTAG`, the log fluorescence was -0.159 z-score.
`CCGGGTTTCACCATGTTGGCGTGCTAG` gave a log fluorescence of 1.05 z-score.
For `TTAGATTTCGGATTTCGATTAGTGCTA`, the log fluorescence was 2.92 z-score.
With `GAAGATTTCAATTAGAAAAAGTGCTAG` the log fluorescence was 0.607 z-score.
For `TTAGGACTGAACTTTCGGTTAGTGCTA`, the log fluorescence was 0.887 z-score.
`TTAGATTTCGGGTATCGATAAGTGCTA` has a log fluorescence of 1.37 z-score.
`GACGGTATCGGTCTCGGGAGGTGCTAG` gave a log fluorescence of 0.425 z-score.
With `GACGGACTTCTTCTCCTGACGTGCTAG` the log fluorescence was -0.118 z-score.
The log fluorescence of `GACGGTCTCGGTCTTGGGACGTGCTAG` is reported as 0.776 z-score.
With `GACGAATTGAGACTGGAGACGTGCTAG` the log fluorescence was -0.0151 z-score.
`TTAGGTTACCTTTTCCTTTAGTGCTAG` has a log fluorescence of 1.57 z-score.
For `GACGGTTTCGACTTACGGGACGTGCTA`, the log fluorescence was 12.4 z-score.
For `TTAGGTTTCGATTTTCGGTTAGTGCTA`, the log fluorescence was 14.1 z-score.
With `GACGGTCTCGGTCTCGAGACGTGCTAG` the log fluorescence was 1.32 z-score.
The log fluorescence of `GACGGGTTCGGTTCCGGGACGTGCTAG` is reported as 2.75 z-score.

Series 2 — method: DHFR PCA, deep sequencing; sample: yeast; with: (+)-ABA 200 µM; reference: wild-type fitted maximum; direction: higher = stronger binding
Target: ABI1, truncated, D143A, DHFR fusion (Arabidopsis thaliana)
Notes: methotrexate growth selection, single substitutions
Starting sequence: PYL1, truncated, DHFR fusion (Arabidopsis thaliana); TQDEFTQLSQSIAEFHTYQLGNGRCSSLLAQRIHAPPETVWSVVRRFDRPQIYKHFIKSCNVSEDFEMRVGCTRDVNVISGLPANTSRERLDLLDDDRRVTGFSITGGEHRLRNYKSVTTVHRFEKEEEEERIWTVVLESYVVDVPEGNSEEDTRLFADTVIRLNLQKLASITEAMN; partner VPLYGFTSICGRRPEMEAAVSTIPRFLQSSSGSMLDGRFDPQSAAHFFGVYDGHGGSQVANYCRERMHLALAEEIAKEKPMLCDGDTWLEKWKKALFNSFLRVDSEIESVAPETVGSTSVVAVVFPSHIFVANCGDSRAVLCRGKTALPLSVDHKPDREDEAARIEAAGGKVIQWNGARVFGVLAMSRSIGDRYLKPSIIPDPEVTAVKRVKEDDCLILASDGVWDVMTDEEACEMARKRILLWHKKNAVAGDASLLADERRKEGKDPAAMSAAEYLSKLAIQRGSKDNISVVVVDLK
`A30W`: “relative binding score” 96.9%.
Under “relative binding score”, `N61C` is recorded as 99.6%.
For `A35Q`, “relative binding score” read 57.1%.
For `K54L`, “relative binding score” read -6.9%.
Under “relative binding score”, `E109Q` is recorded as 101%.
Under “relative binding score”, `S63I` is recorded as 95.6%.
For `W41D`, “relative binding score” read -1.83%.
`Q31L`: “relative binding score” 49.4%.
Under “relative binding score”, `N149G` is recorded as 61.6%.
`L28P` — result for “relative binding score”: -31.3%.
Under “relative binding score”, `T106Y` is recorded as 105%.

Series 3 — method: universal PBM; form: double-stranded DNA, one strand shown; sample: in vitro; tested at: 600 nM; direction: higher = stronger binding
Target: Sal-like protein 4, full length isoform A (SALL4, Homo sapiens, UniProt Q9UJQ4, residues 1-1053)
Sequence of UniProt Q9UJQ4 (whole entry, looked up): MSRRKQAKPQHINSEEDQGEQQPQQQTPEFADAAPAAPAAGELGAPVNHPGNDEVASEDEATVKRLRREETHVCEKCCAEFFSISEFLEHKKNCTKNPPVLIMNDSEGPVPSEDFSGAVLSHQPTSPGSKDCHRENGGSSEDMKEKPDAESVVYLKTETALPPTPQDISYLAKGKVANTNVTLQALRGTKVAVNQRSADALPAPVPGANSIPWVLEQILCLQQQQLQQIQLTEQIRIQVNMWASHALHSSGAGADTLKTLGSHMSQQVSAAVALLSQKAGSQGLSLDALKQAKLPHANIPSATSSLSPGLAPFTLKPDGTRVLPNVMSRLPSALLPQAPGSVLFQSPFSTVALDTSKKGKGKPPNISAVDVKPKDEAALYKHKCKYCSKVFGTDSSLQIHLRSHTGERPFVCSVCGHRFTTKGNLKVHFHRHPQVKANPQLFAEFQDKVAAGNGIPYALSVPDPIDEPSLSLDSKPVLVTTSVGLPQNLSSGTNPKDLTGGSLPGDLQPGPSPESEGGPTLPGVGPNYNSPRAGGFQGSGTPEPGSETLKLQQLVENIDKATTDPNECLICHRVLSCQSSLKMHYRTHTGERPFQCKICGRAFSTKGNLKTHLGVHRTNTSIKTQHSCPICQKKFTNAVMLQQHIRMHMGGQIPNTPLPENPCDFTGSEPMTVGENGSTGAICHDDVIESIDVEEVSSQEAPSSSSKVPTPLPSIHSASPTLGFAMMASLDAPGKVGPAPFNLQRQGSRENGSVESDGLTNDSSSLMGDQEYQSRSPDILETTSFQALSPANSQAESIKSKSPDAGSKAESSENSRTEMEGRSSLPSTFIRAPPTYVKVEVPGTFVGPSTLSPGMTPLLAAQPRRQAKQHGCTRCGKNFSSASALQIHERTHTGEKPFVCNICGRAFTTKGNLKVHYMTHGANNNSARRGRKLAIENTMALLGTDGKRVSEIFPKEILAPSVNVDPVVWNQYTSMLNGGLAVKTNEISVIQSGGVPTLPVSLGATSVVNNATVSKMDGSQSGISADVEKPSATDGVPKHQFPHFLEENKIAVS
Notes: 8-mer, flanks averaged, mean of replicates
The E-score of `AAAACTCT` is reported as -0.00069.
The E-score of `CCCCGCCG` is reported as -0.357.
`CGACCTGA` has an E-score of -0.173.
The E-score of `ATAGAGAG` is reported as 0.0341.
`GATTGTAA` gave an E-score of 0.246.
For `ACGACTAA`, the E-score was -0.0381.
`ACCTAAGA` gave an E-score of 0.0499.
For `CGGCGCCC`, the E-score was -0.341.
`ACTAAGCA` gave an E-score of 0.0477.
`ACGAGAAC` gave an E-score of -0.0335.
`AAGAATAT` gave an E-score of 0.303.
With `ACCACCTA` the E-score was -0.0741.
`ATGATCGA` gave an E-score of 0.168.
With `CGATCTAA` the E-score was 0.0294.
For `GCTATCCA`, the E-score was -0.0353.
With `AGGAGGCC` the E-score was -0.287.
`CCTGTTAA` has an E-score of -0.00639.
With `CCTTAGCC` the E-score was -0.133.
`ATCATAAC` has an E-score of 0.41.
The E-score of `CGACCTAG` is reported as -0.00714.
The E-score of `GTATCCAC` is reported as -0.0951.
For `ACAGCGGC`, the E-score was -0.137.
The E-score of `GCAATTAA` is reported as 0.268.
`CCACATCG` gave an E-score of -0.133.
The E-score of `GATCTGGA` is reported as -0.021.

Mixed results
For `PhoQ, residues 284 288 289 292 302 303 STVVAA`, the fold induction was 42.7 (PhoP, residues 12 14 15 18 19 LHHYF (Escherichia coli, UniProt P23836); Sort-seq, item: YFP reporter; E. coli; PhoQ-PhoP variant library, with: 10 µM Mg2+; reference: high Mg2+ state, higher = stronger signaling).

For quick reference, copied from above (series 1):
The log fluorescence of `TTAGGTATCCTTTTCCATTAGTGCTAG` is reported as 1.74 z-score.
`GGGCATTTAGAAAATGGAAATGTGCTA` gave a log fluorescence of -0.417 z-score.
`TTAGGTTTCGGTATGGGTTAGTGCTAG` gave a log fluorescence of 10.2 z-score.
With `TTAGATTTCAGGCTCGATTAGTGCTAG` the log fluorescence was 1.45 z-score.
With `TTAGGTTTCGGTCTCGGTTCGTGCTAG` the log fluorescence was 9.65 z-score.
